Experimental data from different studies.
Lines come from different studies, so protocols differ. Values joined by “and” are separate records of one study, mostly repeats; a detail may differ. ± marks the error that the study gave.
Organism: Escherichia coli

COS(C)(=O)=O — revertant colonies per plate (preincubation Ames test; WP2 uvrA; 1 µL per plate): 1090
CC(C)N(N=O)C(C)C — revertant colonies per plate (mutagenicity, Ames plate incorporation; WP2 uvrA pKM101; 2500 µg/plate, without S9, methanol): 141 ± 16
COS(C)(=O)=O — revertant ratio (Ames test, initial; WP2 uvrA; 1000 µg/plate; relative to: solvent control): 12.8
NCC(=O)O — half-life (MG1655): 16.2 h
Nc1ccc2cc3ccccc3cc2c1 — revertant fold increase (WP2 uvrA; 20 µg/plate, together with: rat liver S9; relative to: vehicle control): 5.5
Nc1ccc2cc3ccccc3cc2c1 — revertant colonies per plate (preincubation Ames test; WP2 uvrA; 100 µg per plate, together with: rat liver S9): 131
CNC(=O)c1c(N(C)N=O)ncn1C — revertant colonies per plate (mutagenicity, Ames plate incorporation; WP2 uvrA pKM101; 500 µg/plate, without S9, methanol): 118 ± 9
CC(=O)N1CCC(C(=O)N2CCN3C(=O)c4cc(-c5ccccc5)ccc4NC(=O)C3C2)CC1 (stereo not drawn) — revertants per plate (WP2 uvrA; 5000 µg/plate, without S9): 20.5
Nc1ccc2cc3ccccc3cc2c1 — revertant ratio (Ames test, initial; WP2 uvrA; 15 µg/plate, together with: rat liver S9; relative to: solvent control): 9.5
CN(CC(C)(C)C)N=O — revertant colonies per plate (mutagenicity, Ames plate incorporation; WP2 uvrA pKM101; 1500 µg/plate, without S9, methanol): 179 ± 13
Cc1cc(C(=O)NC(C)(C)COc2cccc3c2C(N)=NS(=O)(=O)N3)cc(C)n1 — revertant ratio (Ames test, initial; WP2 uvrA; 1500 µg/plate, together with: rat liver S9; relative to: solvent control): 1.1
Nc1ccc2cc3ccccc3cc2c1 — revertant colonies (Ames test; WP2 uvrA pKM101; 0.4 µg/well, 48 h, with S9): 640 colonies/well and 576 colonies/well and 672 colonies/well
